Measured values gathered from unrelated publications.
Each line is one published result; not all experiments were run side by side. ± gives the spread as reported.
SRC: Proto-oncogene tyrosine-protein kinase Src (SRC, Homo sapiens, UniProt P12931)

N=C(N)NCCC[C@@H]1NC(=O)[C@H](Cc2c[nH]c3ccccc23)NC(=O)[C@H](CCCNC(=N)N)NC(=O)[C@H](Cc2c[nH]c3ccccc23)NC(=O)[C@H](CCCNC(=N)N)NC(=O)[C@H](Cc2c[nH]c3ccccc23)NC(=O)[C@H](CCCNC(=N)N)NC(=O)[C@H](Cc2c[nH]c3ccccc23)NC(=O)[C@H](CCCNC(=N)N)NC(=O)[C@H](Cc2c[nH]c3ccccc23)NC(=O)[C@H](CCCNC(=N)N)NC(=O)[C@H](Cc2c[nH]c3ccccc23)NC(=O)[C@H](CCCNC(=N)N)NC(=O)[C@H](Cc2c[nH]c3ccccc23)NC1=O has an IC50 of 350 nM (SRC; enzyme activity, inhibitor, radiometric).
With Cc1ccc2oc(-c3c4c(N)n[nH]c(=O)c4nn3-c3ccc(NC(=O)/C=C/CN(C)C)cc3)c(C)c2c1 the IC50 was greater than 1000 nM (SRC; enzyme activity, inhibitor, ELISA).
For CCCCCCCCCC(=O)OCCN1CCN(c2cc(Nc3ncc(C(=O)Nc4c(C)cccc4Cl)s3)nc(C)n2)CC1, the IC50 was 35 nM (SRC; enzyme activity, inhibitor).
For COc1ccc2c(c1)C(=C1Nc3ccccc3C1=NOCC(O)CO)C(=O)N2 (stereo not drawn), the IC50 was 10.7 nM (SRC; enzyme activity, inhibitor, radiometric).
The IC50 of Cc1nc(Nc2ncc(C(=O)Nc3c(C)cccc3Cl)s2)cc(N2CCN(CCOC(=O)[C@@H](N)CCCNC(=N)N)CC2)n1 is reported as less than 0.25 nM (SRC; enzyme activity, inhibitor).
CNC(=O)C1CCN(c2cc(C)c(F)cc2NC(=O)c2ccc(-c3cc(O)ccc3C)c(C)c2)CC1 gave a Ki of 11.9 nM (SRC; cell-free assay, TR-FRET).
The IC50 of Cc1nc(Nc2ncc(C(=O)Nc3c(C)cccc3Cl)s2)cc(N2CCN(CCOC(=O)CCCCCCCCCCN)CC2)n1 is reported as 1 nM (SRC; enzyme activity, inhibitor).
For CSCC[C@H](NC(=O)[C@H](CS)NC(=O)[C@H](CC(=O)O)NC(=O)CN)C(=O)N[C@@H](Cc1ccc(OP(=O)(O)O)cc1)C(=O)N[C@@H](C)C(=O)N1CCC[C@H]1C(=O)N[C@@H](CC(C)C)C(=O)N[C@@H](CC(C)C)C(=O)NCC(=O)N[C@H](C(=O)N1CCC[C@H]1C(=O)N[C@@H](CC(=O)O)C(=O)O)C(C)C, the Kd was 1850 nM (Proto-oncogene tyrosine-protein kinase Src, SH2 (SRC, Homo sapiens, UniProt P12931); binding, FP).
C#Cc1cccc(Nc2ncnc3cc(OC)c(OCCCN4CCOCC4)cc23)c1 gave an IC50 of 5210 ± 386 nM (SRC; enzyme activity, inhibitor; 30 min, together with: ATP 80.8 µM).
CC(C)(O)Cn1cc(-c2ccc3nc(OC(F)F)ccc3c2)c2c(N)ncnc21 gave an IC50 of greater than 10000 nM (SRC; enzyme activity, inhibitor).
With CC(=O)N[C@@H](CCNC(=O)[C@H](CCCNC(=O)c1cnccn1)NC(=O)[C@H](Cc1ccco1)NC(=O)[C@H](CC1CC1)NC(C)=O)C(N)=O the IC50 was greater than 100000 nM (SRC; Z′-LYTE; together with: ATP at Km).
CC(C)(O)Cn1nc(-c2ccc3nc(OC(F)F)ccc3c2)c2c(N)ncnc21 has an IC50 of greater than 10000 nM (SRC; enzyme activity, inhibitor).
For C=CC(=O)N1CCc2ccc(-n3c(=O)ccc4cnc5ccc(-c6cnn(C)c6)cc5c43)cc21, the IC50 was greater than 10000 nM (SRC; enzyme activity, inhibitor).
The IC50 of Cc1nc(Nc2ncc(C(=O)Nc3c(C)cccc3Cl)s2)cc(N2CCN(CCOC(=O)[C@@H](N)CS)CC2)n1 is reported as 6.6 nM (SRC; enzyme activity, inhibitor).
The IC50 of N=C(N)NCCC[C@@H]1NC(=O)[C@H](Cc2c[nH]c3ccccc23)NC(=O)[C@H](CCCNC(=N)N)NC(=O)[C@H](Cc2c[nH]c3ccccc23)NC(=O)[C@H](CCCNC(=N)N)NC(=O)[C@H](Cc2c[nH]c3ccccc23)NC(=O)[C@H](CCCNC(=N)N)NC(=O)[C@H](Cc2c[nH]c3ccccc23)NC(=O)[C@H](CCCNC(=N)N)NC(=O)[C@H](Cc2c[nH]c3ccccc23)NC(=O)[C@H](CCCNC(=N)N)NC(=O)[C@H](Cc2c[nH]c3ccccc23)NC(=O)[C@H](CCCNC(=N)N)NC(=O)[C@H](Cc2c[nH]c3ccccc23)NC(=O)[C@H](CCCNC(=N)N)NC(=O)[C@H](Cc2c[nH]c3ccccc23)NC(=O)[C@H](CCCNC(=N)N)NC(=O)[C@H](Cc2c[nH]c3ccccc23)NC1=O is reported as 210 nM (SRC; enzyme activity, inhibitor, radiometric).

For quick reference, copied from above:
C#Cc1cccc(Nc2ncnc3cc(OC)c(OCCCN4CCOCC4)cc23)c1 gave an IC50 of 5210 ± 386 nM (SRC; enzyme activity, inhibitor; 30 min, together with: ATP 80.8 µM).
CC(C)(O)Cn1nc(-c2ccc3nc(OC(F)F)ccc3c2)c2c(N)ncnc21 has an IC50 of greater than 10000 nM (SRC; enzyme activity, inhibitor).
